Assay results collected from several papers.
Lines come from different studies, so protocols differ.
TMPRSS2: Transmembrane protease serine 2 (TMPRSS2, Homo sapiens, UniProt O15393)
UniProt O15393, sequence (whole entry, looked up): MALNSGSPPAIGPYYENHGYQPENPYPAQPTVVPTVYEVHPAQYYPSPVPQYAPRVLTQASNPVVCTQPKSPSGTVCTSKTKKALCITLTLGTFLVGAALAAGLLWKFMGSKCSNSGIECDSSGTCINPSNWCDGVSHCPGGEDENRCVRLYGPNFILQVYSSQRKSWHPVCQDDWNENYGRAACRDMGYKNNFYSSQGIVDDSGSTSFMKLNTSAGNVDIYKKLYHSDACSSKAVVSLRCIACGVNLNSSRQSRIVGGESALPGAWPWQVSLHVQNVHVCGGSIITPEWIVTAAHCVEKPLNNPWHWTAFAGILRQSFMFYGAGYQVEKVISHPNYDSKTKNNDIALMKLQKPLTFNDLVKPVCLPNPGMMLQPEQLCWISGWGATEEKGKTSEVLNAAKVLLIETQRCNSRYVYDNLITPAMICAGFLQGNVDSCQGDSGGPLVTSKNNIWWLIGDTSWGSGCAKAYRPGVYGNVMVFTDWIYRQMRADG
PFF0160c: Dihydroorotate dehydrogenase (quinone), mitochondrial (PFF0160c, Plasmodium falciparum, UniProt Q08210)
UniProt Q08210, sequence (whole entry, looked up): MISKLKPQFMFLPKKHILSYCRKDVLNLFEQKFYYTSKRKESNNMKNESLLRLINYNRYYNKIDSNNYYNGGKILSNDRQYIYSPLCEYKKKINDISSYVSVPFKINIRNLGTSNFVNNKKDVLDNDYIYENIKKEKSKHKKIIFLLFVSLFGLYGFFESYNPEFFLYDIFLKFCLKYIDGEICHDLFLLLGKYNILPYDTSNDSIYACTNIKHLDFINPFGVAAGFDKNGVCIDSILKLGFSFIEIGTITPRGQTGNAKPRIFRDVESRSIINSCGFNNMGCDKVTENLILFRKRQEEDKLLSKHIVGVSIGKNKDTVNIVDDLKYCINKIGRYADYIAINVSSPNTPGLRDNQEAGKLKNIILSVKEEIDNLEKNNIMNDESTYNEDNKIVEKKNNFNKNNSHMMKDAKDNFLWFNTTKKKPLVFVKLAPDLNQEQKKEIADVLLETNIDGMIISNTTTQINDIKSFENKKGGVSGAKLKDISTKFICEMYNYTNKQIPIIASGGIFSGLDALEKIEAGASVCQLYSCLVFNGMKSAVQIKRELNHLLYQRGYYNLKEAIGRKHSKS
UniProt Q04912, sequence (whole entry, looked up): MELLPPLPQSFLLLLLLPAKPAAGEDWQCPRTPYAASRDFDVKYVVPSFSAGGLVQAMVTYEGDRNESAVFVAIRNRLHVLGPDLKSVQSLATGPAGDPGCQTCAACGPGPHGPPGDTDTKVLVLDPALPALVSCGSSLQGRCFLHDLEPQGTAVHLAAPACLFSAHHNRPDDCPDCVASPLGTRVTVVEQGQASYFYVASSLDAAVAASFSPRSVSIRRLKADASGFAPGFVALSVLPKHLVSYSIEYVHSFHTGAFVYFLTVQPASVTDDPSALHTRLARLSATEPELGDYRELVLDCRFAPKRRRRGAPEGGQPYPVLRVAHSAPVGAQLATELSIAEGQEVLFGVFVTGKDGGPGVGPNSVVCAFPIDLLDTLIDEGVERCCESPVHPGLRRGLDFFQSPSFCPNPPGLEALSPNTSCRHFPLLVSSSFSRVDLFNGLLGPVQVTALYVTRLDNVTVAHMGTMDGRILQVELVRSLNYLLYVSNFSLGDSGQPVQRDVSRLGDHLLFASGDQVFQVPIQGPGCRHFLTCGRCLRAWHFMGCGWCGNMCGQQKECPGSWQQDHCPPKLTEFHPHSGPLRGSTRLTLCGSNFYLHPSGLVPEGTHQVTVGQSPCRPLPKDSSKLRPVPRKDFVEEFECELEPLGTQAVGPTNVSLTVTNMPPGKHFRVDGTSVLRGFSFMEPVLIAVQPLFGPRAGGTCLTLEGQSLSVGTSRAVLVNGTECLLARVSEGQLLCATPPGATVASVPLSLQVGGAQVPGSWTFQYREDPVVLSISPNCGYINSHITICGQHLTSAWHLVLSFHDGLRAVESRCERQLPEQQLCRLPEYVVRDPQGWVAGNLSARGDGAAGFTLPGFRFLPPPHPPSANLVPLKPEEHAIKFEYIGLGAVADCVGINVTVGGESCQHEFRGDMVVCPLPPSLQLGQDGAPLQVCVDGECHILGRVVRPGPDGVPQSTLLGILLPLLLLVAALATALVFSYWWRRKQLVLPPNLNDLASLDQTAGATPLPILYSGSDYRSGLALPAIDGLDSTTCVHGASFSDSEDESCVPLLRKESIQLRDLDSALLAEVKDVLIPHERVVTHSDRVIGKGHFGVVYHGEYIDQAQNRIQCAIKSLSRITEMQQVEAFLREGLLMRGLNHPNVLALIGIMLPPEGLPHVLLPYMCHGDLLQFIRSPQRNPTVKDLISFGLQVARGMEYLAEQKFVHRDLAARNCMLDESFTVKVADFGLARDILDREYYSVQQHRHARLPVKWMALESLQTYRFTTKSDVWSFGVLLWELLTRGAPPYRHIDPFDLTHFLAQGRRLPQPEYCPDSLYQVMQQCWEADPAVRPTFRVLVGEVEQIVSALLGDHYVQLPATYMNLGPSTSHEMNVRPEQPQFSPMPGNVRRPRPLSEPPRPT
UniProt Q9H422, sequence (whole entry, looked up): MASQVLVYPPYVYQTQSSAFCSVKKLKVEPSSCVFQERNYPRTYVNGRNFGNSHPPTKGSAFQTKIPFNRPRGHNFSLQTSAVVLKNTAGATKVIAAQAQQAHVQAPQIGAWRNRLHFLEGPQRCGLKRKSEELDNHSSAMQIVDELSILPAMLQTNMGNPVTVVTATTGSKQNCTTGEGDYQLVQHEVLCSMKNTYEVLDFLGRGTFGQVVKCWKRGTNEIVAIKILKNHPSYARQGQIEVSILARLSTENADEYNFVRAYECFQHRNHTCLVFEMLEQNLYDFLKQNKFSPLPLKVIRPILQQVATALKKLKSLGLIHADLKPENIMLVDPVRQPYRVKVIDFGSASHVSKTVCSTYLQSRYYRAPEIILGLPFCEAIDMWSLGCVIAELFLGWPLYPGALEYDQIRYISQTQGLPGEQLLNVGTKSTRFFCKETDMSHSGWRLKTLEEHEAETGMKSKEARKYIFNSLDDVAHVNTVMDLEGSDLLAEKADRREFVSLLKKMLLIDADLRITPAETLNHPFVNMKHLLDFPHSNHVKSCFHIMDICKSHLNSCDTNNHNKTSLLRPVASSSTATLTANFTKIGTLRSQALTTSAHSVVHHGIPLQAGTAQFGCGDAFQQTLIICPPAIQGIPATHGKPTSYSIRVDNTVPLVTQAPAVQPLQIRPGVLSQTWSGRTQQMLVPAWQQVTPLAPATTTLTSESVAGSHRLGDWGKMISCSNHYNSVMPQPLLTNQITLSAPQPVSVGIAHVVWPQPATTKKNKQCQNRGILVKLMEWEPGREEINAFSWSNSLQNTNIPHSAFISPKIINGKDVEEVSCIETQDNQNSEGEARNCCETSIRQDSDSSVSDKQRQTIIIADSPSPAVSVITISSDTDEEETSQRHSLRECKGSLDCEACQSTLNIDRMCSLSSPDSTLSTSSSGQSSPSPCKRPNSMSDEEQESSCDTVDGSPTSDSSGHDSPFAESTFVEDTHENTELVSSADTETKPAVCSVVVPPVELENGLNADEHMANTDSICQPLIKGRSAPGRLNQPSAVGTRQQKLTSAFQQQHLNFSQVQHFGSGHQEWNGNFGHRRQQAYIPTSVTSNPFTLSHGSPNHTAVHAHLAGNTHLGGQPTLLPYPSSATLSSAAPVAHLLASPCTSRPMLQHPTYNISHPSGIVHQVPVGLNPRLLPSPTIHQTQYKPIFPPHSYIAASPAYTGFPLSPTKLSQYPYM
UniProt P07711, sequence (whole entry, looked up): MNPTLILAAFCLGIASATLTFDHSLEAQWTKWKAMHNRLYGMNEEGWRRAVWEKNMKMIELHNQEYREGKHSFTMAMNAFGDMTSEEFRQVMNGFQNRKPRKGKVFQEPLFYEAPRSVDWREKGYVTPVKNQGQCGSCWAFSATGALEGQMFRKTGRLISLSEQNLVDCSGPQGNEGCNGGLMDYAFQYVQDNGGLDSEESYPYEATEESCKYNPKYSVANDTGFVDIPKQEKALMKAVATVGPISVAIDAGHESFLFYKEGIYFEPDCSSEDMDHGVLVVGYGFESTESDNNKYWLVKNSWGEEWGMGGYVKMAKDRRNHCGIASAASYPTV
UniProt Q7L7X3, sequence (whole entry, looked up): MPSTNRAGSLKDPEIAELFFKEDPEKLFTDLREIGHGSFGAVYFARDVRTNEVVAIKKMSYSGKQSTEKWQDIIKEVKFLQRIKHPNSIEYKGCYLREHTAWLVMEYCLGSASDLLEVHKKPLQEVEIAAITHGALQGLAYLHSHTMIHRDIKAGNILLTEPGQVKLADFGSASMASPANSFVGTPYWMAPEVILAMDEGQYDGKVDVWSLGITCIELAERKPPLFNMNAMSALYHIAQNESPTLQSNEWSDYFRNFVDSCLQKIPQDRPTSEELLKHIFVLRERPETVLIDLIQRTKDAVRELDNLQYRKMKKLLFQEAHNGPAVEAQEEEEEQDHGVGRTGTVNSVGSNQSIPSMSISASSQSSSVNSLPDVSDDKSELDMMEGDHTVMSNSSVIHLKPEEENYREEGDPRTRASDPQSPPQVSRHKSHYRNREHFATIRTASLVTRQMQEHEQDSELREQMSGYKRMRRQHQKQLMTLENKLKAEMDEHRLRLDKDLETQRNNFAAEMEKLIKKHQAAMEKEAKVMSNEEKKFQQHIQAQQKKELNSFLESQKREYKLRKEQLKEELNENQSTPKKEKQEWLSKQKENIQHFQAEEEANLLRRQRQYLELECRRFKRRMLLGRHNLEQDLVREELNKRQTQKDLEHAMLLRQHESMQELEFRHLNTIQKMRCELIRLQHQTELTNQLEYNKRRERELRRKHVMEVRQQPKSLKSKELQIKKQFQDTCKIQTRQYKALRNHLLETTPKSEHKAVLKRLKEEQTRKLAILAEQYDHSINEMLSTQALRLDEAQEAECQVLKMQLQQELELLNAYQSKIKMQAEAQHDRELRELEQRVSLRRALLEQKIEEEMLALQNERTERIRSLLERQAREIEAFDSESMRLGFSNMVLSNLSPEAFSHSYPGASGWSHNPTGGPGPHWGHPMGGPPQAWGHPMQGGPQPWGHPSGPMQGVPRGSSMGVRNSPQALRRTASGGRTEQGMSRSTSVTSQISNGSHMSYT

| SMILES | target | observed | mode | method | tested at | measurement | result |
| --- | --- | --- | --- | --- | --- | --- | --- |
| Nc1ncc(-c2nc(N3CCOCC3)nc(N3CCOCC3)n2)c(C(F)F)n1 | Mast/stem cell growth factor receptor Kit (KIT, Homo sapiens, UniProt P10721, L576P) | binding | – | competition with immobilised ligand | 10 µM | remaining binding | 7.4% |
| C[C@H](NC(=O)[C@H](CCC(N)=O)NC(=O)[C@H](CCCNC(=N)N)NS(C)(=O)=O)C(=O)N[C@@H](CCCNC(=N)N)C(=O)c1nc2ccccc2s1 | TMPRSS2 | enzyme activity | inhibitor | – | 1 nM | activity vs control | 85% |
| COc1ncccc1-c1cnn2ccc(N3CCN(C(=O)OC(C)C)CC3)nc12 | Serine/threonine-protein kinase TAO1 (TAOK1, Homo sapiens, UniProt Q7L7X3) | binding | – | competition with immobilised ligand | 1 µM | remaining binding | 60% |
| CN1CCC[C@H]1c1cccnc1 | 5-hydroxytryptamine receptor 6 (HTR6, Homo sapiens, UniProt P50406) | ligand displacement | – | – | 50 µM | inhibition | 10.6% |
| CCN(CC)CCCC[C@H](NC(=O)[C@H](CC(C)C)NC(=O)[C@H](C)NC(=O)[C@H](Cc1ccccc1)NC(=O)c1ccc(C(C)(C)C)cc1)C(=O)N[C@@H](CO)C(=O)OC | Bromodomain-containing protein 3, BD2 (BRD3, Homo sapiens, UniProt Q15059) | thermal stability | – | DSF | 25 µM | ΔTm | 0.33 °C |
| C#Cc1n[nH]c2c(-c3cn(C(C)c4ccccn4)c(=O)[nH]c3=O)cc(F)cc12 (centres unmarked) | Macrophage-stimulating protein receptor (MST1R, Homo sapiens, UniProt Q04912) | enzyme activity | inhibitor | – | 1 µM | inhibition | 66.6% |
| Cc1nn(C)cc1-c1nc2c(N3CCN(Cc4ccc(Cl)cc4)CC3)c(Cl)cnc2[nH]1 | Epidermal growth factor receptor (EGFR, Homo sapiens, UniProt P00533, A750P/del747-749) | binding | – | competition with immobilised ligand | 1 µM | remaining binding | 100% |
| CSc1nc2nc(C)c(Cc3cccc(C(F)(F)F)c3)c(C)n2n1 | PFF0160c | enzyme activity | inhibitor | absorbance | – | IC50 | 445 nM |
| C[C@@H](NC(=O)[C@H](CCC(N)=O)NC(=O)[C@@H](N)CCCNC(=N)N)C(=O)N[C@@H](CCCNC(=N)N)C(=O)c1nc2ccccc2s1 | TMPRSS2 | enzyme activity | inhibitor | – | 1 nM | activity vs control | 99% |
| [2H]c1c([2H])c([C@]2([2H])CCCN2C(=O)C(C)(C)Oc2ccc3cn[nH]c3c2)c([2H])c([2H])c1C([2H])([2H])[2H] | Homeodomain-interacting protein kinase 3 (HIPK3, Homo sapiens, UniProt Q9H422) | binding | – | competition with immobilised ligand | 1 µM | remaining binding | 97% |
| N=C(N)NCCC[C@H](NC(=O)[C@H](Cc1ccccc1)NC(=O)[C@H](CCC(N)=O)NC(=O)[C@@H]1CCC(=O)N1)C(=O)c1nc2ccccc2s1 | TMPRSS2 | enzyme activity | inhibitor | – | 1 nM | activity vs control | 50% |
| Cc1cccc(C(=O)N2CCN(Cc3cccc(NC(=O)c4ccco4)c3)CC2)c1 | PFF0160c | enzyme activity | inhibitor | absorbance | – | IC50 | 2530 nM |
| CC(C)[C@@H](NC(=O)[C@H](CCc1ccccc1)NC(=O)CCc1ccccc1)C(=O)N[C@@H](CCCNC(=N)N)C(=O)c1nc2ccccc2s1 | TMPRSS2 | enzyme activity | inhibitor | – | 1 nM | activity vs control | 80% |
| O=C/C=C/c1ccccc1 | Procathepsin L (CTSL, Homo sapiens, UniProt P07711) | enzyme activity | inhibitor | – | 100 µM | remaining activity | 39.7% |

For quick reference, copied from above:
| SMILES | target | observed | mode | method | tested at | measurement | result |
| --- | --- | --- | --- | --- | --- | --- | --- |
| CCN(CC)CCCC[C@H](NC(=O)[C@H](CC(C)C)NC(=O)[C@H](C)NC(=O)[C@H](Cc1ccccc1)NC(=O)c1ccc(C(C)(C)C)cc1)C(=O)N[C@@H](CO)C(=O)OC | Bromodomain-containing protein 3, BD2 (BRD3, Homo sapiens, UniProt Q15059) | thermal stability | – | DSF | 25 µM | ΔTm | 0.33 °C |
